# Experimental data gathered from unrelated publications.
# Lines come from different studies, so protocols differ. Several values in a cell are separate wells, animals, samples, runs or records. pKd: −log10 of the molar value.
# U2AF2: U2AF2 148-342 (Homo sapiens, UniProt P26368)
# UniProt P26368, sequence (whole entry, looked up): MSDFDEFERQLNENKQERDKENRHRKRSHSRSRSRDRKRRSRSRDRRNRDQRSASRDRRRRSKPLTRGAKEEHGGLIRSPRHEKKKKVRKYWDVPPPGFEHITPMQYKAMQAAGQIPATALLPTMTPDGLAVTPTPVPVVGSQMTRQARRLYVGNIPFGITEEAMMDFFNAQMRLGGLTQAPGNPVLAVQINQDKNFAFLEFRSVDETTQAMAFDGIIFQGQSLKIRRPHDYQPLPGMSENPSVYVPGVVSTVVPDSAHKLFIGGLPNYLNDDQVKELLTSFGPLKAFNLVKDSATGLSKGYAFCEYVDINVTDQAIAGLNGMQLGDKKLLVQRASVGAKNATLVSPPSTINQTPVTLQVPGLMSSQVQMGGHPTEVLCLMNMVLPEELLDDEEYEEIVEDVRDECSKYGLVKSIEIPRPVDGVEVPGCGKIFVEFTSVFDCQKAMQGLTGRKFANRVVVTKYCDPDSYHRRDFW
# B1: human FUS; sequence looked up; chain MASNDYTQQATQSYGAYPTQPGQGYSQQSSQPYGQQSYSGYSQSTDTSGYGQSSYSSYGQSQNTGYGTQSTPQGYGSTGGYGSSQSSQSSYGQQSSYPGYGQQPAPSSTSGSYGSSSQSSSYGQPQSGSYSQQPSYGGQQQSYGQQQSYNPPQGYGQQNQYNSSSGGGGGGGGGGNYGQDQSSMSSGGGSGGGYGNQDQSGGGGSGGYGQQDRGGRGRGGSGGGGGGGGGGYNRSSGGYEPRGRGGGRGGRGGMGGSDRGGFNKFGGPRDQGSRHDSEQDNSDNNTIFVQGLGENVTIESVADYFKQIGIIKTNKKTGQPMINLYTDRETGKLKGEATVSFDDPPSAKAAIDWFDGKEFSGNPIKVSFATRRADFNRGGGNGRGGRGRGGPMGRGGYGGGGSGGGGRGGFPSGGGGGGGQQRAGDWKCPNPTCENMNFSWRNECNQCKAPKPDGPGGGPGGSHMGGNYGDDRRGGRGGYDRGGYRGRGGDRGGFRGGRGGGDRGGFGPGKMDSRGEHRQDRRERPY
# B2: Btk 215-378 (Mus musculus, UniProt P35991); sequence looked up; chain ELKKVVALYDYMPMNANDLQLRKGEEYFILEESNLPWWRARDKNGQEGYIPSNYITEAEDSIEMYEWYSKHMTRSQAEQLLKQEGKEGGFIVRDSSKAGKYTVSVFAKSTGEPQGVIRHYVVCSTPQSQYYLAEKHLFSTIPELINYHQHNSAGLISRLKYPVS
# B3: clcA C85A/H234C (Escherichia coli, UniProt P37019); chain MKTDTPSLETPQAARLRRRQLIRQLLERDKTPLAILFMAAVVGTLVGLAAVAFDKGVAWLQNQRMGALVHTADNYPLLLTVAFLASAVLAMFGYFLVRKYAPEAGGSGIPEIEGALEDQRPVRWWRVLPVKFFGGLGTLGGGMVLGREGPTVQIGGNIGRMVLDIFRLKGDEARHTLLATGAAAGLAAAFNAPLAGILFIIEEMRPQFRYTLISIKAVFIGVIMSTIMYRIFNCEVALIDVGKLSDAPLNTLWLYLILGIIFGIFGPIFNKWVLGMQDLLHRVHGGNITKWVLMGGAIGGLCGLLGFVAPATSGGGFNLIPIATAGNFSMGMLVFIFVARVITTLLCFSSGAPGGIFAPMLALGTVLGTAFGMVAVELFPQYHLEAGTFAIAGMGALLAASIRAPLTGIILVLEMTDNYQLILPMIITGLGATLLAQFTGGKPLYSAILARTLAKQEAEQLARSKAASASENT
# B4: dszC (Rhodococcus erythropolis, UniProt P54998); sequence looked up; chain MTLSPEKQHVRPRDAADNDPVAVARGLAEKWRATAVERDRAGGSATAEREDLRASGLLSLLVPREYGGWGADWPTAIEVVREIAAADGSLGHLFGYHLTNAPMIELIGSQEQEEHLYTQIAQNNWWTGNASSENNSHVLDWKVSATPTEDGGYVLNGTKHFCSGAKGSDLLFVFGVVQDDSPQQGAIIAAAIPTSRAGVTPNDDWAAIGMRQTDSGSTDFHNVKVEPDEVLGAPNAFVLAFIQSERGSLFAPIAQLIFANVYLGIAHGALDAAREYTRTQARPWTPAGIQQATEDPYTIRSYGEFTIALQGADAAAREAAHLLQTVWDKGDALTPEDRGELMVKVSGVKALATNAALNISSGVFEVIGARGTHPRYGFDRFWRNVRTHSLHDPVSYKIADVGKHTLNGQYPIPGFTS
# B5: cfbA 1-143 S11T (Methanocaldococcus jannaschii, UniProt Q58380); chain MEALVLVGHGTRLPYSKELLVKLAEKVKERNLFPIVEIGLMEFSEPTIPQAVKKAIEQGAKRIIVVPVFLAHGIHTTRDIPRLLGLIEDNHEHHHEHSHHHHHHHHHEHEKLEIPEDVEIIYREPIGADDRIVDIIIDRAFGR
# B6: TSPAN8 (Homo sapiens, UniProt P19075); sequence looked up; chain MAGVSACIKYSMFTFNFLFWLCGILILALAIWVRVSNDSQAIFGSEDVGSSSYVAVDILIAVGAIIMILGFLGCCGAIKESRCMLLLFFIGLLLILLLQVATGILGAVFKSKSDRIVNETLYENTKLLSATGESEKQFQEAIIVFQEEFKCCGLVNGAADWGNNFQHYPELCACLDKQRPCQSYNGKQVYKETCISFIKDFLAKNLIIVIGISFGLAVIEILGLVFSMVLYCQIGNK
# B7: tsaM1 (Comamonas testosteroni, UniProt P94679); sequence looked up; chain MFIRNCWYVAAWDTEIPAEGLFHRTLLNEPVLLYRDTQGRVVALENRCCHRSAPLHIGRQEGDCVRCLYHGLKFNPSGACVEIPGQEQIPPKTCIKSYPVVERNRLVWIWMGDPARANPDDIVDYFWHDSPEWRMKPGYIHYQANYKLIVDNLLDFTHLAWVHPTTLGTDSAASLKPVIERDTTGTGKLTITRWYLNDDMSNLHKGVAKFEGKADRWQIYQWSPPALLRMDTGSAPTGTGAPEGRRVPEAVQFRHTSIQTPETETTSHYWFCQARNFDLDDEALTEKIYQGVVVAFEEDRTMIEAHEKILSQVPDRPMVPIAADAGLNQGRWLLDRLLKAENGGTAP
# B8: SH3GL2 (Homo sapiens, UniProt Q99962); sequence looked up; chain MSVAGLKKQFHKATQKVSEKVGGAEGTKLDDDFKEMERKVDVTSRAVMEIMTKTIEYLQPNPASRAKLSMINTMSKIRGQEKGPGYPQAEALLAEAMLKFGRELGDDCNFGPALGEVGEAMRELSEVKDSLDIEVKQNFIDPLQNLHDKDLREIQHHLKKLEGRRLDFDYKKKRQGKIPDEELRQALEKFDESKEIAESSMFNLLEMDIEQVSQLSALVQAQLEYHKQAVQILQQVTVRLEERIRQASSQPRREYQPKPRMSLEFPTGDSTQPNGGLSHTGTPKPSGVQMDQPCCRALYDFEPENEGELGFKEGDIITLTNQIDENWYEGMLHGHSGFFPINYVEILVALPH
# B9: Ikbkg 251-355 (Mus musculus, UniProt O88522); sequence looked up; chain MQLEDLRQQLQQAEEALVAKQELIDKLKEEAEQHKIVMETVPVLKAQADIYKADFQAERHAREKLVEKKEYLQEQLEQLQREFNKLKVGCHESARIEDMRKRHVE
# B10: unc-83 1-305 (Caenorhabditis elegans, UniProt Q23064); sequence looked up; chain MDVMDSFSEVEMPNDISSEDHLLKVIESSAEEVDIFLENCSSLYNLILDSLHNLTSKTISCECLDEMTSTLEKSAKKILAERPEAENSVLLRLNTICCAMDQLRVQHNSRMMSGADSDTASSARSSTSSSTGEMRLWLHEVERRLEINEKRIRVEPNLQLLLSDQQALQLEIQHEGQLLVNRLNKQIKDDHDSDSSEEEKRKTCVDAIRKRWHTIYLNSLSLVCRIEELINHQQASEDSESDPDLVGPPIKRARIRTVGHLTASDTEESEADEEDRHSQTETVVTEDDNVLPFAENEYESIMDGR
# B11: ADAR 127-1226 (Homo sapiens, UniProt P55265-1); sequence looked up; chain SSHFQELSIYQDQEQRILKFLEELGEGKATTAHDLSGKLGTPKKEINRVLYSLAKKGKLQKEAGTPPLWKIAVSTQAWNQHSGVVRPDGHSQGAPNSDPSLEPEDRNSTSVSEDLLEPFIAVSAQAWNQHSGVVRPDSHSQGSPNSDPGLEPEDSNSTSALEDPLEFLDMAEIKEKICDYLFNVSDSSALNLAKNIGLTKARDINAVLIDMERQGDVYRQGTTPPIWHLTDKKRERMQIKRNTNSVPETAPAAIPETKRNAEFLTCNIPTSNASNNMVTTEKVENGQEPVIKLENRQEARPEPARLKPPVHYNGPSKAGYVDFENGQWATDDIPDDLNSIRAAPGEFRAIMEMPSFYSHGLPRCSPYKKLTECQLKNPISGLLEYAQFASQTCEFNMIEQSGPPHEPRFKFQVVINGREFPPAEAGSKKVAKQDAAMKAMTILLEEAKAKDSGKSEESSHYSTEKESEKTAESQTPTPSATSFFSGKSPVTTLLECMHKLGNSCEFRLLSKEGPAHEPKFQYCVAVGAQTFPSVSAPSKKVAKQMAAEEAMKALHGEATNSMASDNQPEGMISESLDNLESMMPNKVRKIGELVRYLNTNPVGGLLEYARSHGFAAEFKLVDQSGPPHEPKFVYQAKVGGRWFPAVCAHSKKQGKQEAADAALRVLIGENEKAERMGFTEVTPVTGASLRRTMLLLSRSPEAQPKTLPLTGSTFHDQIAMLSHRCFNTLTNSFQPSLLGRKILAAIIMKKDSEDMGVVVSLGTGNRCVKGDSLSLKGETVNDCHAEIISRRGFIRFLYSELMKYNSQTAKDSIFEPAKGGEKLQIKKTVSFHLYISTAPCGDGALFDKSCSDRAMESTESRHYPVFENPKQGKLRTKVENGEGTIPVESSDIVPTWDGIRLGERLRTMSCSDKILRWNVLGLQGALLTHFLQPIYLKSVTLGYLFSQGHLTRAICCRVTRDGSAFEDGLRHPFIVNHPKVGRVSIYDSKRQSGKTKETSVNWCLADGYDLEILDGTRGTVDGPRNELSRVSKKNIFLLFKKLCSFRYRRDLLRLSYGEAKKAARDYETAKNYFKKGLKDMGYGNWISKPQEEKNFYLCPV
# B12: rga7 33-307 K193A/K194A/K199A/K201A (Schizosaccharomyces pombe, UniProt O94466); sequence looked up; chain PKVEAILNSELGLAILNDRIKDYLLTCKELAGFFKKRSILEEESGKNLQKLAKSYLETFQSKHHSPQSFSASVITSMEIHEQLANHSLTLQKTLSAFSDQVIEFHKNAERKRKSIKEYAKKQENAYLEAVMQMDKSKSRFKGAETEYNRALDNKNTGDSQAAVGFFAPASNAQLTKLEDEARLKAENAESDMHSKIENAQNVQKQLLCIHRPNYIKQFFSLQREIESSLIANYLRYTKLCESNTLLNGLTIRPQKPTPTNCGLQHALDNINANTD
# B13: PHYA I748P (Arabidopsis thaliana, UniProt P14712); phytochromobilin thioether linked; chain GMSGSRPTQSSEGSRRSRHSARIIAQTTVDAKLHADFEESGSSFDYSTSVRVTGPVVENQPPRSDKVTTTYLHHIQKGKLIQPFGCLLALDEKTFKVIAYSENASELLTMASHAVPSVGEHPVLGIGTDIRSLFTAPSASALQKALGFGDVSLLNPILVHCRTSAKPFYAIIHRVTGSIIIDFEPVKPYEVPMTAAGALQSYKLAAKAITRLQSLPSGSMERLCDTMVQEVFELTGYDRVMAYKFHEDDHGEVVSEVTKPGLEPYLGLHYPATDIPQAARFLFMKNKVRMIVDCNAKHARVLQDEKLSFDLTLCGSTLRAPHSCHLQYMANMDSIASLVMAVVVNEEDGEGDAPDATTQPQKRKRLWGLVVCHNTTPRFVPFPLRYACEFLAQVFAIHVNKEVELDNQMVEKNILRTQTLLCDMLMRDAPLGIVSQSPNIMDLVKCDGAALLYKDKIWKLGTTPSEFHLQEIASWLCEYHMDSTGLSTDSLHDAGFPRALSLGDSVCGMAAVRISSKDMIFWFRSHTAGEVRWGGAKHDPDDRDDARRMHPRSSFKAFLEVVKTRSLPWKDYEMDAIHSLQLILRNAFKDSETTDVNTKVIYSKLNDLKIDGIQELEAVTSEMVRLIETATVPILAVDSDGLVNGWNTKIAELTGLSVDEAIGKHFLTLVEDSSVEIVKRMLENALEGTEEQNVQFEIKTHLSRADAGPISLVVNACASRDLHENVVGVCFVAHDLTGQKTVMDKFTRPEGDYKAIIQNPNPLIPPIFGTDEFGWCTEWNPAMSKLTGLKREEVIDKMLLGEVFGTQKSCCRLKNQEAFVNLGIVLNNAVTSQDPEKVSFAFFTRGGKYVECLLCVSKKLDREGVVTGVFCFLQLASHELQQALHVQRLAERTAVKRLKALAYIKRQIRNPLSGIMFTRKMIEGTELGPEQRRILQTSALCQKQLSKILDDSDLESIIEGCLDLEMKEFTLNEVLTASTSQVMMKSNGKSVRITNETGEEVMSDTLYGDSIRLQQVLADFMLMAVNFTPSGGQLTVSASLRKDQLGRSVHLANLEIRLTHTGAGIPEFLLNQMFGTEEDVSEEGLSLMVSRKLVKLMNGDVQYLRQAGKSSFIITAELAAANK
# UniProt P25552, sequence (whole entry, looked up): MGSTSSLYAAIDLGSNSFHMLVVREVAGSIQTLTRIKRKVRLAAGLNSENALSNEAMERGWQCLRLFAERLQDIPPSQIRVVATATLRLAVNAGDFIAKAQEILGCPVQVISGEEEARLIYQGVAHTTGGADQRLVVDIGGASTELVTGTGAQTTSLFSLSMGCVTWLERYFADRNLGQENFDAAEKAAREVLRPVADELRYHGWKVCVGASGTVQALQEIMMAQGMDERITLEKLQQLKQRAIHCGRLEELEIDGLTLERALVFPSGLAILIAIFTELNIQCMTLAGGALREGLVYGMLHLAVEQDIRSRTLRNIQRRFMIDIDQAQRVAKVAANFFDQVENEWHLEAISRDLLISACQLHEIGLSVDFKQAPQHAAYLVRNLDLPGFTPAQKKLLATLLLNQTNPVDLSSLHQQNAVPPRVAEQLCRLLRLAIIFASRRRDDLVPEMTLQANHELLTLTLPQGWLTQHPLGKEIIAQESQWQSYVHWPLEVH
Molecule,tested on,test,system,conditions,how to read,quantity,value
B1 (human FUS),CYB5R4 knockout human cells,"PP4 interaction, 3xFLAG-PP4C IP-MS",,concentration not given,reference: CYB5R4 KO over parental,log2 fold change,-0.51
B2 (Btk 215-378),itself,SEC-MALS,,,,subunits per oligomer,2
B3 (clcA C85A/H234C),itself,single-molecule photobleaching,,,,subunits per oligomer,2
B4 (dszC),itself,SEC,,,,subunits per oligomer,4
B5 (cfbA 1-143 S11T),itself,SEC,,,,subunits per oligomer,2
B6 (TSPAN8),itself,fluorescence intensity fluctuation spectrometry,HEK293T,in cells,,subunits per oligomer,2
B7 (tsaM1),itself,SEC,,,,subunits per oligomer,3
UGACAUUUU (ssRNA),U2AF2,sequencing of bound RNA,RNA,motif only,,pKd,5.13
B8 (SH3GL2),itself,SEC-SAXS,,,,subunits per oligomer,2
AUUGUUUUC (ssRNA),U2AF2,sequencing of bound RNA,RNA,motif only,,pKd,5.47
B9 (Ikbkg 251-355),itself,AUC,,,,subunits per oligomer,2
B10 (unc-83 1-305),itself,mass photometry,,,,subunits per oligomer,2
"gppA (Escherichia coli, UniProt P25552)",itself,crystal structure,,,,subunits per oligomer,4
B11 (ADAR 127-1226),itself,SEC,,,,subunits per oligomer,2
B12,itself,cross-linking,,,,subunits per oligomer,4 and 3 and 2
B13 (PHYA I748P),itself,SEC,,,,subunits per oligomer,2

# For quick reference, copied from above:
Molecule,tested on,test,system,conditions,how to read,quantity,value
B4 (dszC),itself,SEC,,,,subunits per oligomer,4
B5 (cfbA 1-143 S11T),itself,SEC,,,,subunits per oligomer,2
B6 (TSPAN8),itself,fluorescence intensity fluctuation spectrometry,HEK293T,in cells,,subunits per oligomer,2
